# Results from different studies.
# Parts stem from different laboratories: compare values within a part only. Values joined by “and” are separate records of one study, mostly repeats; a detail may differ.

# Study 1
# Target: Prothrombin, mature alpha-thrombin (F2, Homo sapiens, UniProt P00734)
# Method: aptamer microarray, sandwich
# Molecule type: DNA with 2'F-ANA
# Matrix: in vitro
# Tested at: 200 nM
# Notes: whole 15-mer aptamer, many near background
# Together with: Cy3 exosite-II aptamer, 400 nM
# Direction: higher = stronger binding
# Strand: GGTTGGTGTGGTTGG
Modification,mean fluorescence intensity
2'F-ANA at 1 2 4 5 6 8 9 10 11 12 13 14 15,51.7 a.u.
2'F-ANA at 3 5 6 8 9 13,88.7 a.u.
2'F-ANA at 1 2 3 4 5 6 7 9 12 13 14 15,49.1 a.u.
2'F-ANA at 2 3 4 6 7 8 9,642 a.u.
2'F-ANA at 3 5 8 13 15,98.6 a.u.
2'F-ANA at 1 2 4 5 6 7 8 11 13 15,259 a.u.

# Study 2
# Target: Interferon regulatory factor 5, full length, phosphomimetic (IRF5, Homo sapiens, UniProt Q13568-2, residues 1-514, S451D/S453D/S456D/S462D)
# Method: protein-binding microarray
# Molecule type: double-stranded DNA, one strand shown
# Matrix: in vitro
# Tested at: 940 nM top
# Notes: 60-bp whole probe
# Together with: salmon DNA 0.4 mg/ml
# Relative to: random background probes
# Direction: higher = stronger binding
# Constant ends, left off below: GCCTAGCAC … GTCTTGATTCGCTTGACGCTGCTG
Strand,fitted relative affinity [z-score]
TCAATTCCTGATCTCTGACTGTGCTAG,0.31
GACGGTATAGACTTTCGGGACGTGCTA,0.623
TTAGATTCCAGTTTCGATCAGTGCTAG,8.33
GACGGTTCCCTTTTCCTGATGTGCTAG,0.733
TTAGGACTGGACTAGCGGTTAGTGCTA,-0.747

# Study 3
# Target: Phosphate system positive regulatory protein PHO4, full length, GST-tagged (PHO4, Saccharomyces cerevisiae, UniProt P07270, residues 1-312)
# Method: competition protein-binding microarray
# Molecule type: double-stranded DNA, one strand shown
# Matrix: in vitro
# Tested at: 2 µM
# Notes: whole 60-bp probe, lowest competitor level
# Together with: Cbf1 competitor, 0.05 µM
# Direction: higher = stronger binding
# Constant ends, left off below: … GTCTTGATTCGCTTGACGCTGCTG
# Residues (chain): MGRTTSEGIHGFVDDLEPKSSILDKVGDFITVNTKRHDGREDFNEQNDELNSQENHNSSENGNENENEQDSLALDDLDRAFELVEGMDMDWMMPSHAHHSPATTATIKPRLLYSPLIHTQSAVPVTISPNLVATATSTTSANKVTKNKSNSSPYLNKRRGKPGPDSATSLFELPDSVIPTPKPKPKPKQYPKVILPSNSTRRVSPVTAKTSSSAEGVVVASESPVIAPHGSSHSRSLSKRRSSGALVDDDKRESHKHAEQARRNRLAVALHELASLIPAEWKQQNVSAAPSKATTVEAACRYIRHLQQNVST
Strand,fluorescence intensity [a.u.]
AAACAAACTACATCGCACGTGACGGATAACTATACG,17500
CGTAATTGACATGAACACATGCATTATATTTTTTGT,10500
CGTCCTAGTGATTGTCCTGTGGGTGCCATGAGGAAG,6970
AAAGCGGTAATTTGCCACGTGTTTTCACATATCTAT,18600
CTGCTTTAGAATTTGTCCGTGACGGGTACTCTAACA,4120
TGCGCAACAACTTGGGGCGTGGGTGTATGTCTAGAA,8930

# Mixed results
Molecule,target,assay,system,conditions,how to read,measurement,value
"PhoQ, residues 284 288 289 292 302 303 ASVMEA","PhoP, residues 12 14 15 18 19 LWHCS (Escherichia coli, UniProt P23836)","Sort-seq, measured: YFP reporter",E. coli,"PhoQ-PhoP variant library, together with: 10 µM Mg2+","relative to: high Mg2+ state, higher = stronger signaling",fold induction,24.8 and 16.2

# Excerpt of the above (study 1):
Modification,mean fluorescence intensity
2'F-ANA at 2 3 4 6 7 8 9,642 a.u.
2'F-ANA at 3 5 8 13 15,98.6 a.u.
2'F-ANA at 1 2 4 5 6 7 8 11 13 15,259 a.u.
